Results gathered from unrelated publications.
Each numbered part is a random draw from the data of one study; scales do not carry over between parts.

Study 1
Target: Ras GTPase-activating protein-binding protein 1, C-terminal RGG region (G3BP1, Homo sapiens, UniProt Q13283)
Sequence of UniProt Q13283 (whole entry, looked up): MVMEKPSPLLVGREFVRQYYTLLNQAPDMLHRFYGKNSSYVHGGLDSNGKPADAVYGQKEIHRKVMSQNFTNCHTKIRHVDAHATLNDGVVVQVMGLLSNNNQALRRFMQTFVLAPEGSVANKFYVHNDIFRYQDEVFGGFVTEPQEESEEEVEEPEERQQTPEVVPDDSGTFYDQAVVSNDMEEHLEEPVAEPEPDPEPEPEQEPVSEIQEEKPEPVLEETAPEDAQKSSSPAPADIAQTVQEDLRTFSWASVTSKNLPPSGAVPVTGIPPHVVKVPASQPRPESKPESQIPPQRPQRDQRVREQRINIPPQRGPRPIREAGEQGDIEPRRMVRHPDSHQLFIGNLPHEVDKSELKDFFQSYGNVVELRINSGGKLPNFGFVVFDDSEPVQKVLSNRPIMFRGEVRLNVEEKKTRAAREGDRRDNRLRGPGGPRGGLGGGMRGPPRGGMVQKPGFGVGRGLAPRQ
Technique: RNA Bind-n-Seq
Form: RNA
Sample: in vitro
Tested at: 1 µM
Setting: whole 134-nt RNA, ends assumed
With: 150 mM KCl
Baseline: input library
Reading: higher = stronger binding
Strand	log2 enrichment
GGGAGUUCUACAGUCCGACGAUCACCAUGCAGGUGGGCAUCUUUGGGAAGUGGGGCAAGGGGGGGAUAAGGAGGGGGGUAACACUUUGGGAACAGGUGGUCCCAGGUCGUUUCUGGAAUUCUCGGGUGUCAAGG	2.29
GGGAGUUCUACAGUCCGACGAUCUCCUGUGCUACACAUCGUAUGUACCGAAUCGGGUUUUUUGGGUUUUUUGGUUUUUUGGGGAAAGUAUUAUGUUACGCCGUUCGGAUCUGCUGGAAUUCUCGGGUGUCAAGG	-0.891
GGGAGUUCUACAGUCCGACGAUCGCUGGAAGUAAAAACAAAUGGAAAUGCUUCGGAUAGUGGCAGGGGUGGGGGUUGCUAAGGAAAGGGUGGGAUGGGAGUGGGUAAAGAGUUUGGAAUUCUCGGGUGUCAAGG	2.48
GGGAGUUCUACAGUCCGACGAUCAUCAUUUCAUUUUUAUAAUUAUACAUUAGACAUUGGCACUUGUGUAAAACUGUCCCUGCAGAUUGAGCAGGAAGUAAAAACAAAUGGAAAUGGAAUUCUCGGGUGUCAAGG	-1.16
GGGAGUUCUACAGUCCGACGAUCCACAGACAACACGCACCCACACAGACACAGAGGGAAGGGGUUGGGAUGGAGACAGGGUGCACAGCAGGGCGGGGUAGGACCCCAGCCCCUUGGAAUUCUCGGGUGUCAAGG	-0.964
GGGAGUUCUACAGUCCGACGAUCAGUCCUGUGCUACACAUCGUAUGUACCGAAUCGGCCCCGGGGCCCCGGGGCCCCGGGGAAAGUAUUAUGUUACGCCGUUCGGAUCUGCACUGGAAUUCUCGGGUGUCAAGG	-2.03
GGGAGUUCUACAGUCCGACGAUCUCAAGUCCUGUGCUACACAUCGUAUGUACCGAAUCGGGCCGGGCCGGGCCGGGGAAAGUAUUAUGUUACGCCGUUCGGAUCUGCACUUCCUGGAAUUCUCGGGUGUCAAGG	0.524
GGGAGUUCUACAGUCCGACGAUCGCAGGAAGUAAAAACAAAUGGAAAUGCUUCGGAUAGUGGCAGGGGUGGGAAAUGCUAAGGAAAGGGUGGGAUGGGAGUGGGUAAAGAGUUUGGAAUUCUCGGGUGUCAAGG	1.37
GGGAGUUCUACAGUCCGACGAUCUUGGCUCGAGAGAUUGAAUCAAGCCCCCAGUACCGCCUACGGAUCGCCAUGGAGAACGACGAUGGGCGCACUGAAGAGGAGAAGCACAGUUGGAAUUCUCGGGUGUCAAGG	-1.29
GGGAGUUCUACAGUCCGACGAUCCACAGACAACACGCACCCACACAGACACAGAGGGAAGGGGUUGGGAUGGGGACAGGGUGCACAGCAGGGCGGGGUAGGCCCCCAGCCCCUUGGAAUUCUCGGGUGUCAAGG	-1.37

Study 2
Target: RNA binding protein fox-1 homolog 2, RRM domain, GST-SBP tag (RBFOX2, Homo sapiens, UniProt O43251-10, residues 100-194)
Technique: RNA Bind-n-Seq
Form: RNA
Sample: in vitro
Tested at: 365 nM
Setting: natural RNA segment, single round, ends assumed
Baseline: no-protein control
Reading: higher = stronger binding
Residues (chain): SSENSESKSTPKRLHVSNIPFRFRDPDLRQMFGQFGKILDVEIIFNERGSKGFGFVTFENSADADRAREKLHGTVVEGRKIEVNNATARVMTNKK
Strand	RBNS enrichment (R)
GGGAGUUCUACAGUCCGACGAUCCCAGGGUGCAGUGUGAGUGUGAUGGGCCACCGGGGCAAGAGGGAAGGUGACCGCCCAGCUCUCCCACAUCCCACUGGAUCUGGCUUACAGGGGGGUCGGAAGCCUGUCCUUGGAAUUCUCGGGUGCCAA	0.942
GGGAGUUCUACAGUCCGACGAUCCUUGCUUUAAAAUUUAGUCCUGUGCAUACUGUGGUGUUUUUACUGUGCAUAUUUGAAUUUUUCAUGCAGUUUUUCUAGAGCAAUAAUCAGUGGUGCUUUUGUACCUAGGUUGGAAUUCUCGGGUGCCAA	0.525
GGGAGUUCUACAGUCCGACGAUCACAACUUCUGACCUGUUGAGGGCAGAACAAAACUAUGCCUCCGUCCACCGUGGUGUUUCUGCAGGGCCCAGAGCUAAGAACAAACAAAGUUAUAAGAACGUACACAGUGAUGGAAUUCUCGGGUGCCAA	0.53
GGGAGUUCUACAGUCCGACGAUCACAGCCAAGGAAGAUUUGAUGCAUUCAGAUUCUCGUGUAACACUUGUUGCUUGGCAACAGUACUGGUUGGGUUGACCAGUAAGUAGAAAAAGGCUAAAGGCUAUGCGAUAUGGAAUUCUCGGGUGCCAA	0.515
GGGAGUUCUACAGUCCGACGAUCGAGCCCCUGCUCCCAGAUCCCUCUGAACCGCCGAGCAACAGCAAAACUAUGUGACAACACUUCUCCGCAUAAAGGUUAUGGUGCCCUAGGCAGUGACAUAUGGCCUCAGGUGGAAUUCUCGGGUGCCAA	0.455
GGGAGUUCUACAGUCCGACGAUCAAAAGGAUGGAAUACCAAGGUCUUUUUAUUCCUCGUGCCCAGUUAAUCUUGCUUUUGUUGGUCAGAAUAGAGGGGUCAGGUUCUUAAUCUCUACACACCAACCCUUUCUUUGGAAUUCUCGGGUGCCAA	0.414
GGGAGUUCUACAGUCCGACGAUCCCAGAUGCGCUUCCUGAGCUCUUGGAUCAGUGCGCUGAAGGGCCGCACUUACAAGUGCCUGUCUGGAGGGUUCUCAAGUGUCAGCGCCACACAAGUCAUCCUGCCUGGCUUGGAAUUCUCGGGUGCCAA	0.279
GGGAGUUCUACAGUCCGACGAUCACAGCUUGCCUUUUUAAUGUUAGUCACAAUGUUUUUGUGGUUUGAAGUUUAGUUUAAUGUUAGUGCAGUGACAGGAAAUACACAUUAUGCUGAUGUUGAUGACAGAAUUUUGGAAUUCUCGGGUGCCAA	1.03
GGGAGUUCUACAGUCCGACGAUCGUUUGGAGUGGCAGAGGCCAUACUUUCUUUGCCUCAGCUUCUCUCCUUCCUGCUGCCCUAUCCUCUGCCUUAGAAGAAAUGGGAACAGCUUGUAGGGAAGGGACAAGCUGUGGAAUUCUCGGGUGCCAA	0.252
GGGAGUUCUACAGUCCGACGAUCCGUGCCGAUCUCGUGUUCUUUCCUGGAUCACAGACAUUAACAAAAAAGUUAAUUUAUGUGACUUGGCAGUUAUUCUAUACAUUUCCUGUCCAUUAAAAAUUUUAAAGGAAUGGAAUUCUCGGGUGCCAA	0.222
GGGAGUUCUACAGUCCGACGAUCACCCUCGAGCUACCAGCCAGGGCUCUAAGUUGCUCUCGUGAUCUUAGUUAGAAAUACAGGCUACAGUGUUUGGUCAGAAUUUAUUCGAAUGUCUUUAUUUUUAAUACCAAUGGAAUUCUCGGGUGCCAA	0.586
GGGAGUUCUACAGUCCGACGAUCCUCUGAAUCUCCCGACCUUGGUCCCCUGCCCAAGAGAGGGUAAGGAGGCUGGUGGGGGAUACGGUGGGUCCUUGGAGCAGGAGUGACAAAGGAGGAAAAGACCAAAAAUCUGGAAUUCUCGGGUGCCAA	0.361

Study 3
Target: Histone acetyltransferase KAT6A, both winged helices, GST fusion (KAT6A, Homo sapiens, UniProt Q92794, residues 1-181)
Technique: protein binding microarray
Form: double-stranded DNA, one strand shown
Sample: in vitro
Tested at: not given
Setting: 8-mer, flanks averaged, mean of 2 arrays, mostly near background
Baseline: not given
Reading: higher = stronger binding
Residues (chain): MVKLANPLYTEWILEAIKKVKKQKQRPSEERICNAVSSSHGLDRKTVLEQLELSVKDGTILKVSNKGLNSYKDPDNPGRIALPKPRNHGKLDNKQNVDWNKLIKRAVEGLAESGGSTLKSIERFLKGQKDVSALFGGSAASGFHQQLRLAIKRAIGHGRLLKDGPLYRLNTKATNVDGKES
Strand	E-score
CGTATGAG	0.00885
TTACGAAA	-0.0104
CTGACTAC	-0.0196
AACAGGTA	-0.125
ACCGAAAG	-0.0242
AAACGTCG	0.139
AAGGATCG	0.0334
AAATAGTC	-0.0324
CGTTCAGC	0.0307
GTAGAAGA	-0.0945
CGGGCAAG	0.181
AAGCAGGC	-0.0753
ACACGGCC	0.23
AGCAATAC	-0.194
ACCGTGAG	0.124
CGCACTAC	0.167
GTTACTCA	0.0147
AAAAGTTA	-0.0986
AGACACGA	0.00829
CTCGTAAC	0.0286
ATTCGGCA	0.109

Study 4
Target: Interferon regulatory factor 5, full length, phosphomimetic (IRF5, Homo sapiens, UniProt Q13568-2, residues 1-514, K96S/S451D/S453D/S456D/S462D)
Technique: protein-binding microarray
Form: double-stranded DNA, one strand shown
Sample: in vitro
Tested at: 250 nM
Setting: 60-bp whole probe
With: salmon DNA 0.4 mg/ml
Baseline: random background probes
Reading: higher = stronger binding
Shared flanks, not repeated: GCCTAGCAC … GTCTTGATTCGCTTGACGCTGCTG
Strand	log fluorescence [z-score]
TCATCATTTTTTTTCATACTGTGCTAG	1.52
TTAGAGCTGGGGACTGGATTAGTGCTA	-0.447
TTAGGTATCGGGACTGGGTAAGTGCTA	1.82
TTAGGACTGCTACTGCGTTAGTGCTAG	-0.517
TTAGGTATCGGACTGGGTTCGTGCTAG	1.42
GACGATCTCAGACTCGAGACGTGCTAG	-0.285
TGTGGCTTAGCTGTCACCTCGTGCTAG	-0.599
GTAGGTATCGGTCTCGGTTAGTGCTAG	6.86
TTACAACTGGGGTATCGATTAGTGCTA	2.64
TTAGATATCGGGTTCCGATTAGTGCTA	2.24
TTAGATATAGGGTATCGATTAGTGCTA	2.17
GACGGTATCCTACCGCTGACGTGCTAG	-0.277
CACCCTTGGAAGTATGACTCTGTGCTA	0.141
TCAAATTAGTGTTTCCCACTGTGCTAG	0.183
TTAGGTATCGGTCTCAGTTAGTGCTAG	6.7
TTAGATATCACACTGGATTAGTGCTAG	0.499
TTGGGTATCGGGTTTCGGTTAGTGCTA	8.24
GACGGACTGGGACTGGAGACGTGCTAG	-0.788
GACGGTTTCCTACTTCTGACGTGCTAG	0.21
TTAGATCTCAGTCTCTATTAGTGCTAG	0.293
TCAATTTTCTGAATGCCACTGTGCTAG	1.07
TTAGGTATCGGTATCGGTGAGTGCTAG	8.52

For quick reference, copied from above (study 4):
Strand	log fluorescence [z-score]
TCATCATTTTTTTTCATACTGTGCTAG	1.52
TTAGAGCTGGGGACTGGATTAGTGCTA	-0.447
TTAGGTATCGGGACTGGGTAAGTGCTA	1.82
TTAGGACTGCTACTGCGTTAGTGCTAG	-0.517
TTAGGTATCGGACTGGGTTCGTGCTAG	1.42
GACGATCTCAGACTCGAGACGTGCTAG	-0.285
TGTGGCTTAGCTGTCACCTCGTGCTAG	-0.599
GTAGGTATCGGTCTCGGTTAGTGCTAG	6.86
TTACAACTGGGGTATCGATTAGTGCTA	2.64
TTAGATATCGGGTTCCGATTAGTGCTA	2.24
